{"data": "Experimental data of several laboratories", "note": "Every numbered part comes from another study and shows a few of its results, in no order."}
{"data": "Set 1", "target": "Interferon regulatory factor 7, full length, phosphomimetic (IRF7, Homo sapiens, UniProt Q92985, residues 1-503, S471D/S472D/S475D/S476D/S477D/S483D/S484D/S487D)", "technique": "protein-binding microarray", "form": "double-stranded DNA, one strand shown", "matrix": "in vitro", "tested at": "2200 nM top", "notes": "60-bp whole probe", "added": "salmon DNA 0.4 mg/ml", "relative to": "random background probes", "direction": "higher = stronger binding", "all sequences stand within": "GCCTAGCAC … GTCTTGATTCGCTTGACGCTGCTG", "sequence of UniProt Q92985 (whole entry, unmodified, looked up)": "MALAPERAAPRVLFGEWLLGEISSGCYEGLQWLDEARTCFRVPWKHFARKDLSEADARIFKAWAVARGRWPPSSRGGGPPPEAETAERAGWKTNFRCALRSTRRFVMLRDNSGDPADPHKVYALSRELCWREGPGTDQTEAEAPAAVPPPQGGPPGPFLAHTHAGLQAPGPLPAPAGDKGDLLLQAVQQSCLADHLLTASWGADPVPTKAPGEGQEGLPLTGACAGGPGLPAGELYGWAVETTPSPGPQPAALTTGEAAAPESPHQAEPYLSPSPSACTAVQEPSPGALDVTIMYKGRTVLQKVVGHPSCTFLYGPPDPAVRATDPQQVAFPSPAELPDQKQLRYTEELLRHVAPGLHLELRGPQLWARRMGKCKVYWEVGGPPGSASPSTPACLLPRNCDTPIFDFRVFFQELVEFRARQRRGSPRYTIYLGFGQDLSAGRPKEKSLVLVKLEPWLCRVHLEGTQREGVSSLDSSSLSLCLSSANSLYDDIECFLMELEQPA"}
{"Oligonucleotide": "TCAGGAGTCAACTCTCTAACTGTGCTA", "fitted relative affinity [z-score]": -0.527}
{"Oligonucleotide": "GACCATTTCAGTCTCGAGACGTGCTAG", "fitted relative affinity [z-score]": 1.39}
{"Oligonucleotide": "TCACTCATACATCTGGGACTGTGCTAG", "fitted relative affinity [z-score]": 0.774}
{"Oligonucleotide": "GTAGGTATCGGACTGGGTTAGTGCTAG", "fitted relative affinity [z-score]": -0.106}
{"Oligonucleotide": "TTAGGACTGCTACTGCCTTAGTGCTAG", "fitted relative affinity [z-score]": -0.288}
{"data": "Set 2", "target": "Prothrombin, mature alpha-thrombin (F2, Homo sapiens, UniProt P00734)", "technique": "aptamer microarray, sandwich", "form": "DNA with 2'F-ANA", "matrix": "in vitro", "tested at": "200 nM", "notes": "whole 15-mer aptamer, many near background", "added": "Cy3 exosite-II aptamer, 400 nM", "direction": "higher = stronger binding", "oligonucleotide": "GGTTGGTGTGGTTGG"}
{"Modification": "2'F-ANA at 1 2 4 5 6 7 8 10 12 13 15", "mean fluorescence intensity [a.u.]": 58.9}
{"Modification": "2'F-ANA at 1 2 4 5 7 9 10 13", "mean fluorescence intensity [a.u.]": 47.4}
{"Modification": "2'F-ANA at 3 6 9 13", "mean fluorescence intensity [a.u.]": 704}
{"Modification": "2'F-ANA at 6 8 9 10 11 12 15", "mean fluorescence intensity [a.u.]": 143}
{"Modification": "2'F-ANA at 1 3 4 5 7 12 15", "mean fluorescence intensity [a.u.]": 108}
{"data": "Set 3", "target": "Phosphate system positive regulatory protein PHO4, full length, GST-tagged (PHO4, Saccharomyces cerevisiae, UniProt P07270, residues 1-312)", "technique": "competition protein-binding microarray", "form": "double-stranded DNA, one strand shown", "matrix": "in vitro", "tested at": "2 µM", "notes": "whole 60-bp probe, lowest competitor level", "added": "Cbf1 competitor, 0.05 µM", "direction": "higher = stronger binding", "Residues (chain)": "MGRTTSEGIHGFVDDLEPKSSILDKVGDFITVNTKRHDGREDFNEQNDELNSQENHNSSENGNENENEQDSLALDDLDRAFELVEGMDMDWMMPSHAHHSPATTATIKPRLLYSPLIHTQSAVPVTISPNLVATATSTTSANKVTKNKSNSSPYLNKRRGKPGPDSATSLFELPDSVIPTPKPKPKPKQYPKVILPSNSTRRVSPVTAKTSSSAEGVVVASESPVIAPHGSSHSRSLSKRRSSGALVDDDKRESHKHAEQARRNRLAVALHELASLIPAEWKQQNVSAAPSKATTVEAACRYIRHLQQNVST"}
{"Oligonucleotide": "CATACCCAACCTTGCTATGTGGGTGAAGATATTTGTGTCTTGATTCGCTTGACGCTGCTG", "fluorescence intensity [a.u.]": 4470}
{"Oligonucleotide": "GATTGATTTTTGCGACTCTTGCGGAAAGGTTCGCCGGTCTTGATTCGCTTGACGCTGCTG", "fluorescence intensity [a.u.]": 2890}
{"Oligonucleotide": "ATTGATCCCTGCTGTCATGCCCCTCACCTTCATTCGGTCTTGATTCGCTTGACGCTGCTG", "fluorescence intensity [a.u.]": 5510}
{"Oligonucleotide": "CCCTCCTCTCAGTCCCACGTGGGCGCTGGCGGCTTTGTCTTGATTCGCTTGACGCTGCTG", "fluorescence intensity [a.u.]": 18600}
{"data": "Mixed results"}
{"Substance": "PhoQ, residues 284 288 289 292 302 303 SVHLDV", "target": "PhoP, residues 12 14 15 18 19 HLGGL (Escherichia coli, UniProt P23836)", "assay": "Sort-seq, item: YFP reporter", "system": "E. coli", "conditions": "PhoQ-PhoP variant library, added: 10 µM Mg2+", "scale": "relative to: high Mg2+ state, higher = stronger signaling", "endpoint": "fold induction", "value": 1.69}
{"note": "Repeated from above (set 3):"}
{"Oligonucleotide": "CATACCCAACCTTGCTATGTGGGTGAAGATATTTGTGTCTTGATTCGCTTGACGCTGCTG", "fluorescence intensity [a.u.]": 4470}
{"Oligonucleotide": "ATTGATCCCTGCTGTCATGCCCCTCACCTTCATTCGGTCTTGATTCGCTTGACGCTGCTG", "fluorescence intensity [a.u.]": 5510}
